Results from different studies.
Each numbered part is a random draw from the data of one study; scales do not carry over between parts.
Chain of UniProt Q05513 (whole entry, looked up): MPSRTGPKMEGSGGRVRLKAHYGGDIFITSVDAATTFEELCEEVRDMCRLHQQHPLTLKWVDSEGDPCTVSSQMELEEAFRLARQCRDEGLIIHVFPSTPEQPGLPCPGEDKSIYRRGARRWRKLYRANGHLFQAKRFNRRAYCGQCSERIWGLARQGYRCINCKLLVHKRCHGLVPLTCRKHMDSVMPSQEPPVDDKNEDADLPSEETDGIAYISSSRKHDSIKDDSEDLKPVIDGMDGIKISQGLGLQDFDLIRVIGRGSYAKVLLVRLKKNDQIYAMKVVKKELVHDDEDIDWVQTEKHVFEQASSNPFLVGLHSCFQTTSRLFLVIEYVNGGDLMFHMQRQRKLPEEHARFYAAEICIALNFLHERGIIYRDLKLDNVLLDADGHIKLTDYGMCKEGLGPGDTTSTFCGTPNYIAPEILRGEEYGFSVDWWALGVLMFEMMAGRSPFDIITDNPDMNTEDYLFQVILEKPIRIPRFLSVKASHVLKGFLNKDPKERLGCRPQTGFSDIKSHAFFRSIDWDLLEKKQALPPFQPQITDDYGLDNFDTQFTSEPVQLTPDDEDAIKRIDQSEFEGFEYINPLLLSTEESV
Chain of UniProt Q06418 (whole entry, looked up): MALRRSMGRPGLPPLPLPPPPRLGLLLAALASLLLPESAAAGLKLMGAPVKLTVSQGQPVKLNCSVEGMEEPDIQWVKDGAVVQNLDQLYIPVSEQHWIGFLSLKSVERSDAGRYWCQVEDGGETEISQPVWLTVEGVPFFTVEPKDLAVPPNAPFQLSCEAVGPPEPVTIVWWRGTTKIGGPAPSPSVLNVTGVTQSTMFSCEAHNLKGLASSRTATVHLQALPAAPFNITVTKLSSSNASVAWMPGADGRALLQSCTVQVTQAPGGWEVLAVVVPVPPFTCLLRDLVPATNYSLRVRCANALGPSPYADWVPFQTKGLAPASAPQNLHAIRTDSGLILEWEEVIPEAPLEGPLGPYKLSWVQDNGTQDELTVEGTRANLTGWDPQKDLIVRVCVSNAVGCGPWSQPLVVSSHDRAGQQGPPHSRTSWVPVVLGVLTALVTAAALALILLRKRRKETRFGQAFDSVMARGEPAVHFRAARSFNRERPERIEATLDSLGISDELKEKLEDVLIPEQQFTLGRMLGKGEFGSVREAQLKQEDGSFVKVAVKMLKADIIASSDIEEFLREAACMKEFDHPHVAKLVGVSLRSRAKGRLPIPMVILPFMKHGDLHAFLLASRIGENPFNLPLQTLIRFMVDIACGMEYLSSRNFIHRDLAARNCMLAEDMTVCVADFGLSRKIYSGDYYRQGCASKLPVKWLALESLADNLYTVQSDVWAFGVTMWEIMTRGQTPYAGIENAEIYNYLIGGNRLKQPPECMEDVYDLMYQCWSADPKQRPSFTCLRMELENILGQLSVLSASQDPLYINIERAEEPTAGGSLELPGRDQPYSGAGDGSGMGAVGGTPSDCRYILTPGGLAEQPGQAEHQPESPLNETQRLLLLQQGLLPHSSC
Chain of UniProt Q9NQU5 (whole entry, looked up): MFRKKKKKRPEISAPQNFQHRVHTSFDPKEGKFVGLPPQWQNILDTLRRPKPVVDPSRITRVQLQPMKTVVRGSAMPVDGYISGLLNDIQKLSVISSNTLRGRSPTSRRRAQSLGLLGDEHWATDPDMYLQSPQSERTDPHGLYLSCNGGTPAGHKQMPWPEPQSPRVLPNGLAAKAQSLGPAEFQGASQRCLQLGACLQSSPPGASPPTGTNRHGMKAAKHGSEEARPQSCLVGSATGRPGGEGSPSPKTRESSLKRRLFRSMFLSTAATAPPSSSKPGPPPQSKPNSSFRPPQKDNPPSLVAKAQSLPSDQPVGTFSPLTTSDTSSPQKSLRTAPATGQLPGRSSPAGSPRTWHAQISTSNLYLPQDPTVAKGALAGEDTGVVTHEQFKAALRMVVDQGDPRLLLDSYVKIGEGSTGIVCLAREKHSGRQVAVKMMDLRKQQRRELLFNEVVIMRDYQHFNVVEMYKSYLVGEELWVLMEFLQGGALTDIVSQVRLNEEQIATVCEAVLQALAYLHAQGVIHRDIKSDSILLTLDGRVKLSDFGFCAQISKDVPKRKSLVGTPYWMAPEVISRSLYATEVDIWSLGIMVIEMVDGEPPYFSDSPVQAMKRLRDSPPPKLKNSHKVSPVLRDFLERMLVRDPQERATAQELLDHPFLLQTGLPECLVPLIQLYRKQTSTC
Chain of UniProt O60674 (whole entry, looked up): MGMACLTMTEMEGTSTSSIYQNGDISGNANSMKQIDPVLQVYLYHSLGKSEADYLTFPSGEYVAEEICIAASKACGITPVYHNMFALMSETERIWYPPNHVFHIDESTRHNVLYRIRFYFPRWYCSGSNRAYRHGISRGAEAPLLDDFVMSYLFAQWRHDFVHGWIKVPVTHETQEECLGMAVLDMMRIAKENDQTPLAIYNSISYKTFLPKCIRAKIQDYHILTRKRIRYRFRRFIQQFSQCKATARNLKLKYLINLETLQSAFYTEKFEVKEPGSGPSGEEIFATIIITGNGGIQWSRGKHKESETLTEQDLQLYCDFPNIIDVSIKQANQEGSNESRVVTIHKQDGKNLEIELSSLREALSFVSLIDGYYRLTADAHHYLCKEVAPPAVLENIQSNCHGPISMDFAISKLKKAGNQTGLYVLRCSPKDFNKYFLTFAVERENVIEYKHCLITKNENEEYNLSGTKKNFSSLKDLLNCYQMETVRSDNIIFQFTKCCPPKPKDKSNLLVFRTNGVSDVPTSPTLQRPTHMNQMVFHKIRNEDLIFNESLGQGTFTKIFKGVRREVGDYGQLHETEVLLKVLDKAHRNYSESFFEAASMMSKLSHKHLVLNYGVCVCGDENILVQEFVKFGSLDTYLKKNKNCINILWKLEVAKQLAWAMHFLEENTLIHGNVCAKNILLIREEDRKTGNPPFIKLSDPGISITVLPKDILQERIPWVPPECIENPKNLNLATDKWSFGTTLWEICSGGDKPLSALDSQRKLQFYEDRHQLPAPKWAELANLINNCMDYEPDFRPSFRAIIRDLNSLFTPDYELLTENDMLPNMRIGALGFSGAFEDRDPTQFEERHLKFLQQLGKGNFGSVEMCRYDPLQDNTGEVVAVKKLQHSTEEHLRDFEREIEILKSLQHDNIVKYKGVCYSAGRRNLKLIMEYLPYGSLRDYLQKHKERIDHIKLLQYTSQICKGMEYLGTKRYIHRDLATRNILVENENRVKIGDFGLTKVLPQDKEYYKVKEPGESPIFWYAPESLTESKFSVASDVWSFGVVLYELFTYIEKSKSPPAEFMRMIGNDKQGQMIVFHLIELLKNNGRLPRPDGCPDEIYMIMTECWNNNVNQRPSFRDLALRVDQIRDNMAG
Chain of UniProt O15146 (whole entry, looked up): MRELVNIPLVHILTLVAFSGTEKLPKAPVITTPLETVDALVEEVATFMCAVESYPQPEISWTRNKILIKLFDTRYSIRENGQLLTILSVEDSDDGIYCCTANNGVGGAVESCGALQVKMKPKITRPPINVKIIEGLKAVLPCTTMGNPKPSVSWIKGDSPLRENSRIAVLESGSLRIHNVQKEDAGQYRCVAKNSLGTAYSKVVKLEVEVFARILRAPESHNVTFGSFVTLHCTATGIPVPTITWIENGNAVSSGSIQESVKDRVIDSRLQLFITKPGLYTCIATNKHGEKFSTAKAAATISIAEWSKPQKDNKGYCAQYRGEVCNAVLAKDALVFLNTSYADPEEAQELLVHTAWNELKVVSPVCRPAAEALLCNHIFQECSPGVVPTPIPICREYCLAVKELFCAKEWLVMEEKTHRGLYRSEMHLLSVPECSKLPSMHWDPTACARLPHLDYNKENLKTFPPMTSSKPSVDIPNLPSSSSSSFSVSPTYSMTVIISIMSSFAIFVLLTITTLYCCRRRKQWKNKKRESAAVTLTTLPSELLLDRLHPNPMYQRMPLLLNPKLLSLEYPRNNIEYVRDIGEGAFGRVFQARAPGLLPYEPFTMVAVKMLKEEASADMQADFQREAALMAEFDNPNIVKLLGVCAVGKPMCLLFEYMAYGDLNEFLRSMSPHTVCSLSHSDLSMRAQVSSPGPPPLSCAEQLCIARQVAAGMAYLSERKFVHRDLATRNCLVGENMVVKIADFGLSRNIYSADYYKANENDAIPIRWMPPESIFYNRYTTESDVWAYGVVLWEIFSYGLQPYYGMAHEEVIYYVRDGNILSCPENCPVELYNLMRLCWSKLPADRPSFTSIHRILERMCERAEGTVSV
Chain of UniProt P49674 (whole entry, looked up): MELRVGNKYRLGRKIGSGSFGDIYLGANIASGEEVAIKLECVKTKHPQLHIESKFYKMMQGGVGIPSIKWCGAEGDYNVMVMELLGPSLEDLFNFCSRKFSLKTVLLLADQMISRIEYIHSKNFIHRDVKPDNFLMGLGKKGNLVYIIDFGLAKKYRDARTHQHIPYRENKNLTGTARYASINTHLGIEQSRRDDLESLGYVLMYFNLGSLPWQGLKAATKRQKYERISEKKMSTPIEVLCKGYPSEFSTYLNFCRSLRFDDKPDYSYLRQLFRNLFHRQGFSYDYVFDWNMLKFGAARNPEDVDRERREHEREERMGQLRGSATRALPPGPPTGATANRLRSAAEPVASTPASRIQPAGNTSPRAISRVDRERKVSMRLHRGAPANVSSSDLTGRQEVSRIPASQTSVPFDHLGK

Study 1 — method: aptamer microarray, sandwich; molecule type: DNA with 2'F-ANA; medium: in vitro; concentration: 200 nM; with: Cy3 exosite-II aptamer, 400 nM; direction: higher = stronger binding; sequence: GGTTGGTGTGGTTGG
Target: Prothrombin, mature alpha-thrombin (F2, Homo sapiens, UniProt P00734)
Setting: whole 15-mer aptamer, many near background
| Modification | mean fluorescence intensity |
| --- | --- |
| 2'F-ANA at 1 4 5 8 9 11 13 15 | 194 a.u. |
| 2'F-ANA at 3 4 5 6 9 11 13 | 62.4 a.u. |
| 2'F-ANA at 1 2 4 5 8 9 11 14 | 45.6 a.u. |
| 2'F-ANA at 3 6 7 8 9 11 13 14 15 | 559 a.u. |
| 2'F-ANA at 2 5 7 8 10 11 | 45.9 a.u. |
| 2'F-ANA at 2 3 4 9 10 13 14 | 176 a.u. |
| 2'F-ANA at 1 3 4 5 6 7 10 12 14 | 45.7 a.u. |
| 2'F-ANA at 1 6 8 9 13 14 | 53.3 a.u. |

Study 2 — method: protein-binding microarray; molecule type: double-stranded DNA, one strand shown; medium: in vitro; concentration: not given; direction: higher = stronger binding
Target: Protein C-ets-1 (ETS1, Homo sapiens, UniProt P14921, residues 1-441, K379A, full length assumed)
Chain of UniProt P14921 (whole entry, unmodified, looked up): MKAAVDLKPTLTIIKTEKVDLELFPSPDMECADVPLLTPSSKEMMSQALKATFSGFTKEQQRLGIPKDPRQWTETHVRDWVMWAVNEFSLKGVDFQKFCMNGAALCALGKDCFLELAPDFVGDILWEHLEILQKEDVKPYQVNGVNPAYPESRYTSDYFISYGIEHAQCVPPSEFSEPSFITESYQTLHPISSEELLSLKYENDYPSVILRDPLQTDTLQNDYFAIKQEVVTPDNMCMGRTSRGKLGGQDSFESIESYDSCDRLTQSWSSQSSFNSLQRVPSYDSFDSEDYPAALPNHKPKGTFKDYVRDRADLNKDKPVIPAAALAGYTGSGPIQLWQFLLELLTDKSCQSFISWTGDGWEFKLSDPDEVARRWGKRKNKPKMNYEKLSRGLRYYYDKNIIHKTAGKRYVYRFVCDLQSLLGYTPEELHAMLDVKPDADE
Setting: k-mer, scored over probes, only values ≥0.25
| Sequence | E-score |
| --- | --- |
| CCACCGGG | 0.288 |
| ATATACAA | 0.336 |
| ATGTTCCG | 0.253 |
| ACGGTACT | 0.291 |
| ACCGGAAG | 0.492 |
| GAATTACA | 0.277 |
| CATGTCGG | 0.304 |
| ACATGTAC | 0.265 |

Study 3 — effect on: ligand displacement; method: radioligand; concentration: 10 µM
Compound: Cc1cc(NC(=O)c2cccc(S(F)(F)(F)(F)F)c2)cc(-n2ccn3nc(-c4cccnc4)cc23)c1
| target | inhibition [%] |
| --- | --- |
| Muscarinic acetylcholine receptor M4 (CHRM4, Homo sapiens, UniProt P08173) | -13.8 |
| Muscarinic acetylcholine receptor M2 (CHRM2, Homo sapiens, UniProt P08172) | -1.26 |
| Histamine H4 receptor (HRH4, Homo sapiens, UniProt Q9H3N8) | 0.0286 |
| Alpha-1A adrenergic receptor (ADRA1A, Homo sapiens, UniProt P35348) | 1.88 |
| Alpha-1B adrenergic receptor (ADRA1B, Homo sapiens, UniProt P35368) | -2.4 |
| Alpha-2A adrenergic receptor (ADRA2A, Homo sapiens, UniProt P08913) | 18.1 |

Study 4 — Structure (SMILES): COc1ccc(Cl)cc1NC(=O)Nc1cc(C)nc2ccccc12; effect on: enzyme activity; mode: inhibitor; concentration: 0.5 µM; relative to: control
| target | remaining activity |
| --- | --- |
| Cyclin-dependent kinase 2, with cyclin E (CDK2, Homo sapiens, UniProt P24941) | 94.6% |
| Mitogen-activated protein kinase kinase kinase 20 (MAP3K20, Homo sapiens, UniProt Q9NYL2) | 99.7% |
| Tyrosine-protein kinase Fes/Fps (FES, Homo sapiens, UniProt P07332) | 101% |
| Serine/threonine-protein kinase PAK 6 (PAK6, Homo sapiens, UniProt Q9NQU5) | 96.5% |
| Tyrosine-protein kinase JAK2 (JAK2, Homo sapiens, UniProt O60674) | 99.6% |
| Tyrosine-protein kinase Yes (YES1, Homo sapiens, UniProt P07947) | 90.1% |
| Casein kinase I isoform delta (CSNK1D, Homo sapiens, UniProt P48730) | 98.7% |
| Ribosomal protein S6 kinase alpha-3 (RPS6KA3, Homo sapiens, UniProt P51812) | 96.2% |
| Serine/threonine-protein kinase pim-1 (PIM1, Homo sapiens, UniProt P11309) | 98.1% |
| Protein kinase C zeta type (PRKCZ, Homo sapiens, UniProt Q05513) | 99.4% |
| Casein kinase I isoform epsilon (CSNK1E, Homo sapiens, UniProt P49674) | 86.4% |
| Ephrin type-A receptor 2 (EPHA2, Homo sapiens, UniProt P29317) | 100% |
| Ribosomal protein S6 kinase beta-2 (RPS6KB2, Homo sapiens, UniProt Q9UBS0) | 106% |
| Cyclin-dependent kinase 5, with p35 (CDK5, Homo sapiens, UniProt Q00535) | 102% |
| Tyrosine-protein kinase JAK1 (JAK1, Homo sapiens, UniProt P23458) | 99.3% |
| Muscle, skeletal receptor tyrosine-protein kinase (MUSK, Homo sapiens, UniProt O15146) | 93.3% |
| Serine/threonine-protein kinase Sgk2 (SGK2, Homo sapiens, UniProt Q9HBY8) | 96.3% |
| Tyrosine-protein kinase receptor TYRO3 (TYRO3, Homo sapiens, UniProt Q06418) | 98.9% |

Single results of other studies
| SMILES | medium | quantity | result |
| --- | --- | --- | --- |
| CCOC(=O)[C@@H]1CSCC(=O)N[C@H](CC)C(=O)N(C)[C@@H](C)C(=O)N[C@H](CC(C)C)C(=O)N2CCC[C@@H]2C(=O)N(CC(C)C)CC(=O)N[C@@H](CC(C)C)C(=O)N(C)[C@H](C)C(=O)N[C@@H](CC(C)C)C(=O)N1C | hydrocarbon/water | logD | 1.02 |

A few entries again (study 2):
| Sequence | E-score |
| --- | --- |
| ATATACAA | 0.336 |
| ATGTTCCG | 0.253 |
| ACGGTACT | 0.291 |
| ACCGGAAG | 0.492 |
| GAATTACA | 0.277 |
